Assay results gathered from unrelated publications.
± marks the error that the study gave.
DRD2: D(2) dopamine receptor (DRD2, Homo sapiens, UniProt P14416)
Mc1r: Melanocyte-stimulating hormone receptor (Mc1r, Mus musculus, UniProt Q01727)
Ptger2: Prostaglandin E2 receptor EP2 subtype (Ptger2, Rattus norvegicus, UniProt Q62928)

For `Cc1ccc2cccc(N3CCN(CCCCOc4ccc5sc(C)nc5c4)CC3)c2n1`, the EC50 was 15 nM (DRD2; cAMP, agonist, luciferase).
The EC50 of `NC[C@H](O)c1ccc(O)c(O)c1` is reported as 90 ± 30 nM (Alpha-2C adrenergic receptor (ADRA2C, Homo sapiens, UniProt P18825); G protein activation, agonist, BRET, refers to: Gαi1; HEK293T, transfected; Emax below 50%).
For `CCCC[C@H](NC(=O)[C@H](CO)NC(=O)[C@H](Cc1ccc(O)cc1)NC(=O)[C@H](CO)NC(C)=O)C(=O)N[C@@H](CCC(=O)O)C(=O)N[C@@H](Cc1c[nH]cn1)C(=O)N[C@H](Cc1ccccc1)C(=O)N[C@@H](C)C(=O)N[C@@H](Cc1c[nH]c2ccccc12)C(=O)NCC(=O)N[C@@H](CCCCN)C(=O)N1CCC[C@H]1C(=O)N[C@H](C(N)=O)C(C)C`, the EC50 was 0.14 ± 0.08 nM (Mc1r).
`CCOC(=O)NC(=O)C(c1ccccc1)c1ccccc1` gave an EC50 of 224 ± 32.6 nM (Metabotropic glutamate receptor 1 (Grm1, Rattus norvegicus, UniProt P23385); calcium response, positive allosteric modulator; BHK expressing mGluR1a; together with: glutamate EC20).
With `Cc1nc(N)sc1CCCNC(=N)NCCCCCCCCCCCCNC(=N)N` the EC50 was 30200 nM (Histamine H4 receptor (HRH4, Homo sapiens, UniProt Q9H3N8); GTPγS binding, agonist; cell membranes).
The EC50 of `CCC#CC[C@H](C)[C@H](O)/C=C/[C@H]1CCC(=O)N1CCCCCCC(=O)O` is reported as > 10000 nM (Ptger2; reporter gene, agonist).
The EC50 of `CSCC[C@H](NC(=O)[C@H](CO)NC(=O)[C@H](C)NC(=O)[C@H](CO)NC(C)=O)C(=O)N[C@@H](CCC(=O)O)C(=O)N[C@@H](Cc1c[nH]cn1)C(=O)N[C@@H](Cc1ccccc1)C(=O)N[C@@H](CCCNC(=N)N)C(=O)N[C@@H](Cc1c[nH]c2ccccc12)C(=O)NCC(=O)N[C@@H](CCCCN)C(=O)N1CCC[C@H]1C(=O)N[C@H](C(N)=O)C(C)C` is reported as 220 ± 78 nM (Mc1r).
The EC50 of `CNc1nc2cc(OCCCCN3CCN(c4cccc5c4OCCN5)CC3)ccc2s1` is reported as 1.1 nM (DRD2; cAMP, agonist, luciferase).
The EC50 of `CCC1=C(O)c2c(oc(-c3csc4cccc(O)c34)cc2=O)C(CC)(CC)C1=O` is reported as 2800 nM (Tubulin alpha-1B chain/TUBB2B (Bos taurus, UniProt P81947+Q6B856)).
`CCC#CC[C@H](C)[C@H](O)/C=C/[C@H]1CC(F)(F)C(=O)N1CCCCCCC(=O)O` gave an EC50 of > 10000 nM (Ptger2; cAMP, agonist).
With `CC(C)C[C@H](NC(=O)[C@H](C)NC(=O)[C@H](CO)NC(=O)[C@@H]1CCCN1C(=O)[C@@H]1CCCN1C(=O)[C@H](CCC(N)=O)NC(=O)[C@H](CC(C)C)NC(=O)[C@@H](N)[C@@H](C)O)C(=O)N[C@@H](CCCNC(=N)N)C(=O)N[C@@H](CCCNC(=N)N)C(=O)N[C@@H](CCCNC(=N)N)C(=O)N[C@@H](Cc1c[nH]cn1)C(=O)N[C@@H](Cc1ccc(O)cc1)C(=O)N[C@@H](Cc1c[nH]cn1)C(=O)N[C@@H](Cc1c[nH]cn1)C(=O)N[C@@H](C)C(=O)N[C@@H](CC(C)C)C(=O)N1CCC[C@H]1C(=O)N1CCC[C@H]1C(=O)N[C@@H](CO)C(=O)N[C@@H](CCCNC(=N)N)C(=O)O` the EC50 was 68800 nM (C3a anaphylatoxin chemotactic receptor (C3AR1, Homo sapiens, UniProt Q16581); β-arrestin recruitment, agonist).
`CCCC[C@H](NC(=O)[C@H](CO)NC(=O)[C@H](Cc1ccc(O)cc1)NC(=O)[C@H](C)NC(C)=O)C(=O)N[C@@H](CCC(=O)O)C(=O)N[C@@H](Cc1c[nH]cn1)C(=O)N[C@H](Cc1ccccc1)C(=O)N[C@@H](CCCNC(=N)N)C(=O)N[C@@H](Cc1c[nH]c2ccccc12)C(=O)NCC(=O)N[C@@H](CCCCN)C(=O)N1CCC[C@H]1C(=O)N[C@H](C(N)=O)C(C)C` gave an EC50 of 0.016 ± 0.007 nM (Mc1r).
`BP(=O)(OC[C@H]1O[C@@H](n2cnc3c(N)ncnc32)[C@H](O)[C@@H]1O)OP(=O)(O)OP(=O)(O)OP(=O)(O)OC[C@H]1O[C@@H](n2cnc3c(N)ncnc32)[C@H](O)[C@@H]1O` (stereo partly drawn) has an EC50 of > 100000 nM (P2Y purinoceptor 6 (Rattus norvegicus, UniProt Q63371); intracellular calcium rise, agonist; 1321-N1 transfected with rat P2Y6; 37 °C).
`Cc1cnc(Nc2ccc(N3CCN(C)CC3)cc2)nc1Nc1cccc(S(=O)(=O)NC(C)(C)C)c1` has an EC50 of 7600 nM (Fibroblast growth factor 14, homodimer (Homo sapiens, UniProt Q92915); FGF14 homodimerisation, enhancer, luciferase complementation; 10-point dose response).
With `CCCC[C@H](NC(=O)[C@H](CO)NC(=O)[C@H](Cc1ccc(O)cc1)NC(=O)[C@H](CO)NC(C)=O)C(=O)N[C@@H](CCC(=O)O)C(=O)N[C@@H](Cc1c[nH]cn1)C(=O)N[C@H](Cc1ccccc1)C(=O)N[C@@H](CCCNC(=N)N)C(=O)N[C@@H](Cc1c[nH]c2ccccc12)C(=O)N[C@@H](C)C(=O)N[C@@H](CCCCN)C(=O)N1CCC[C@H]1C(=O)N[C@H](C(N)=O)C(C)C` the EC50 was 0.037 ± 0.012 nM (Mc1r).
The EC50 of `CCCCOc1cc2ccccc2nc1N` is reported as 2180 nM (Toll-like receptor 8 (TLR8, Homo sapiens, UniProt Q9NR97); reporter gene, agonist).
`O=c1c(O)c(-c2ccc(O)c(O)c2)oc2cc(O)cc(O)c12` has an EC50 of 6600 ± 3800 nM (Kcnh1 (Mus musculus, UniProt Q60603); deactivation time constant, inside-out patch clamp; Xenopus oocytes).
With `CCCCCCCC(=O)OC[C@H](COP(=O)(O)O[C@@H]1[C@H](O)[C@H](O)[C@@H](OP(=O)(O)O)[C@H](OP(=O)(O)O)[C@H]1O)OC(=O)CCCCCCC` the EC50 was ~0.03 mol % (Transient receptor potential cation channel subfamily V member 1 (Trpv1, Rattus norvegicus, UniProt O35433); agonist, inside-out patch clamp; plasma membrane inner leaflet).
With `CNc1nc2cc(OCCCCN3CCC(c4cccc(Cl)c4Cl)CC3)ccc2s1` the EC50 was 50 nM (DRD2; cAMP, agonist, luciferase).
`N=C(N)NCCC[C@H](NC(=O)[C@H](Cc1ccccc1)NC(=O)[C@@H](N)Cc1cnc[nH]1)C(=O)N[C@@H](Cc1c[nH]c2ccccc12)C(=O)O` gave an EC50 of 4000 nM (Probable G-protein coupled receptor 139 (GPR139, Homo sapiens, UniProt Q6DWJ6); calcium mobilisation, agonist, Fluo-4; CHO transfected; mean of triplicates).
For `CCCC[C@H](NC(=O)[C@H](CO)NC(=O)[C@H](Cc1ccc(O)cc1)NC(=O)[C@H](CO)NC(C)=O)C(=O)N[C@@H](CCC(=O)O)C(=O)N[C@@H](Cc1c[nH]cn1)C(=O)N[C@H](Cc1ccccc1)C(=O)N[C@@H](CCCNC(=N)N)C(=O)N[C@@H](Cc1c[nH]c2ccccc12)C(=O)NCC(=O)N[C@@H](C)C(=O)N1CCC[C@H]1C(=O)N[C@H](C(N)=O)C(C)C`, the EC50 was 0.01 ± 0.003 nM (Mc1r).
`CCCCC[C@H](O)/C=C/[C@H]1CCC(=O)[C@@H]1C/C=C\CCCC(=O)O` gave an EC50 of 38.7 nM (Ptger2; reporter gene, agonist).
With `Clc1nc2cc(OCCCCN3CCN(c4cccc(Cl)c4Cl)CC3)ccc2s1` the EC50 was 43 nM (DRD2; cAMP, agonist, luciferase).
The EC50 of `O=C(Nc1ccccn1)C12CC1/C(=N\O)c1ccccc1O2` (single isomer, unassigned; (-)) is reported as 380 nM (Metabotropic glutamate receptor 4 (GRM4, Homo sapiens, UniProt Q14833); calcium mobilisation, positive allosteric modulator; CHO hmGluR4/Gqi5; together with: glutamate EC20).

Some of these lines once more:
The EC50 of `O=C(Nc1ccccn1)C12CC1/C(=N\O)c1ccccc1O2` (single isomer, unassigned; (-)) is reported as 380 nM (Metabotropic glutamate receptor 4 (GRM4, Homo sapiens, UniProt Q14833); calcium mobilisation, positive allosteric modulator; CHO hmGluR4/Gqi5; together with: glutamate EC20).
The EC50 of `CCC#CC[C@H](C)[C@H](O)/C=C/[C@H]1CCC(=O)N1CCCCCCC(=O)O` is reported as > 10000 nM (Ptger2; reporter gene, agonist).
